Assay results gathered from unrelated publications.
Compare with care: the assays were run in different laboratories. ± gives the spread as reported. Converted amounts (≈) assume the structure as drawn.
gag-pol reverse transcriptase: Gag-Pol polyprotein, reverse transcriptase (gag-pol, Human immunodeficiency virus 1, UniProt P03366)
Cytochrome P450 2A13: Cytochrome P450 2A13 (Homo sapiens, UniProt Q16696)
Chain of UniProt Q16696 (whole entry, looked up): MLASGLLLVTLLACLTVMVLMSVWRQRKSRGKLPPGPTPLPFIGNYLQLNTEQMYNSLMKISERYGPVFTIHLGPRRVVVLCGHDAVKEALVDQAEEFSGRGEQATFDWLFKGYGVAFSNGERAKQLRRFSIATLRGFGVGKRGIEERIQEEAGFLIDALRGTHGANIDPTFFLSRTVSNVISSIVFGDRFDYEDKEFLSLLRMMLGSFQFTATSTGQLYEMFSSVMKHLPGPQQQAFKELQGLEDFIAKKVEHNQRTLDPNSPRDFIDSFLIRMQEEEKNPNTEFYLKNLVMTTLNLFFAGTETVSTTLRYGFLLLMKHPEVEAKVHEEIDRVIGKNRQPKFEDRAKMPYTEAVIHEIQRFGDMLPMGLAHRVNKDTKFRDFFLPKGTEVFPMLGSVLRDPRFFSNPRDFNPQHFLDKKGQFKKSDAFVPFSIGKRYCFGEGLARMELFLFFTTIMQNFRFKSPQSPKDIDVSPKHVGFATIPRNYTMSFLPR
Chain of UniProt Q00987 (whole entry, looked up): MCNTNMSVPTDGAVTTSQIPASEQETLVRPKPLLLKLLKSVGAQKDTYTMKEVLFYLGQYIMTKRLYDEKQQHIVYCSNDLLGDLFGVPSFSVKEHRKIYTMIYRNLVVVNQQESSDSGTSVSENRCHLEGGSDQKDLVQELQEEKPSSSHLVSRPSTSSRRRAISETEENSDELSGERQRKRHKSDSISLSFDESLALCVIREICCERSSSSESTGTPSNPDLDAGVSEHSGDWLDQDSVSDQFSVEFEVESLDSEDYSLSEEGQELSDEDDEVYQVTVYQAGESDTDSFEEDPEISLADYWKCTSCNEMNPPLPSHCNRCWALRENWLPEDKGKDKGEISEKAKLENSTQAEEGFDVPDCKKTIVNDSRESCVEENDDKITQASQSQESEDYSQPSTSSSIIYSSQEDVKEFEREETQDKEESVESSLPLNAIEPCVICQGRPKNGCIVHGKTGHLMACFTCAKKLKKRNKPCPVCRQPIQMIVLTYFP
Chain of UniProt Q15746 (whole entry, looked up): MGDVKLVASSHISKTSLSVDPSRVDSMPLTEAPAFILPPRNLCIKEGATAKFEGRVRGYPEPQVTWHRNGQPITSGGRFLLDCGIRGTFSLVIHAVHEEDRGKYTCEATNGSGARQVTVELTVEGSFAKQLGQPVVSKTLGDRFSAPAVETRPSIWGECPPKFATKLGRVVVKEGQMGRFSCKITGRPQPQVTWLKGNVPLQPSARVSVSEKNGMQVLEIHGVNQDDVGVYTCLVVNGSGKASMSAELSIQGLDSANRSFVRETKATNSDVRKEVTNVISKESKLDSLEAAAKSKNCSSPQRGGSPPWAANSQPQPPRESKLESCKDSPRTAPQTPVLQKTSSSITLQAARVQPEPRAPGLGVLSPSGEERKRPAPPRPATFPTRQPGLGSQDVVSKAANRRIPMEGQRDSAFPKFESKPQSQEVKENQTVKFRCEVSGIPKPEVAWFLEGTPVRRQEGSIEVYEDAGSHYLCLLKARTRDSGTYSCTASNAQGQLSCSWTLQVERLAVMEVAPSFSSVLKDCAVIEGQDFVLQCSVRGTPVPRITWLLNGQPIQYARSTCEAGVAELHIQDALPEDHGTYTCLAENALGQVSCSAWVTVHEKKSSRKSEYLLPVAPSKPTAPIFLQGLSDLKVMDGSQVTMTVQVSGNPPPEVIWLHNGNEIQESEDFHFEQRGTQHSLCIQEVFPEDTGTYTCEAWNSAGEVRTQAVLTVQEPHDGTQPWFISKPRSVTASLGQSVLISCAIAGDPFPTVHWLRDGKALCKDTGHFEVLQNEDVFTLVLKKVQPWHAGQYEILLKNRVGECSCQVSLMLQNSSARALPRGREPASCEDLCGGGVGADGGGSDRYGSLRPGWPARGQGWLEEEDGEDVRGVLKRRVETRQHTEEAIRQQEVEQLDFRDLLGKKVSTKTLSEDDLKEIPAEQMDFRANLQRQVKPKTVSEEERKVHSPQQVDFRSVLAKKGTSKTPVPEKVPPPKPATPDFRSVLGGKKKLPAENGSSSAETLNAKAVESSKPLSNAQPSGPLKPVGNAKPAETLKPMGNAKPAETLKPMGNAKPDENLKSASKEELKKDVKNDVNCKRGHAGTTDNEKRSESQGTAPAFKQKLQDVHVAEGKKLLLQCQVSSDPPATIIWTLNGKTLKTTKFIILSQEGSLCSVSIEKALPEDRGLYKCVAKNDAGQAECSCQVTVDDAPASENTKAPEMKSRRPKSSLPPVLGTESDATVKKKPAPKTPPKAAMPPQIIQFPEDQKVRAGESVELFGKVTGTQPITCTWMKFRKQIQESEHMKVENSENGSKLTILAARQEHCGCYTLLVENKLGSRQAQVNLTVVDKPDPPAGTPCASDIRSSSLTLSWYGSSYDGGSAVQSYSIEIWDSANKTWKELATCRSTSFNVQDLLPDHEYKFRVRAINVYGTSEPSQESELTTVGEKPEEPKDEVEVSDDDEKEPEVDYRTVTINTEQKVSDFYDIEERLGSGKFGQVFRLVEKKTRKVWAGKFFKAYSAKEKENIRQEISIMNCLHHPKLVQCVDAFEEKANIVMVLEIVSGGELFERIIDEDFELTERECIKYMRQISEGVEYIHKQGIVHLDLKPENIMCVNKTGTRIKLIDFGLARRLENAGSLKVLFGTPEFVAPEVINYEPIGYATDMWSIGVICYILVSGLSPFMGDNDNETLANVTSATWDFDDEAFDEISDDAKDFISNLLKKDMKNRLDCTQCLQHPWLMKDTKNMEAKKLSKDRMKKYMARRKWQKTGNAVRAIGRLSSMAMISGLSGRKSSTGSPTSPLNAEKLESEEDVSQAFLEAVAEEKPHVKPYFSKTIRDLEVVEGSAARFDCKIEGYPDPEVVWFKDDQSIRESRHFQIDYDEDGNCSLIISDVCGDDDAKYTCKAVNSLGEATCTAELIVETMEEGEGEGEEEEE
Chain of UniProt Q8TDV2 (whole entry, looked up): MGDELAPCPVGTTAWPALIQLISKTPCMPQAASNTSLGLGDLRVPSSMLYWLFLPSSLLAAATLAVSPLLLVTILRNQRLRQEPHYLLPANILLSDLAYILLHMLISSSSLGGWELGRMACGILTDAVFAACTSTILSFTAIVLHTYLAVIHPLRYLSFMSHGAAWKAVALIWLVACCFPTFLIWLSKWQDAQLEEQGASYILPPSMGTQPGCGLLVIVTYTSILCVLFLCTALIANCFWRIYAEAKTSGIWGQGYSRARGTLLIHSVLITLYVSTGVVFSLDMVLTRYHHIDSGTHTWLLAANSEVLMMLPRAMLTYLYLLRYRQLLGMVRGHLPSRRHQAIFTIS
Chain of UniProt P33535 (whole entry, looked up): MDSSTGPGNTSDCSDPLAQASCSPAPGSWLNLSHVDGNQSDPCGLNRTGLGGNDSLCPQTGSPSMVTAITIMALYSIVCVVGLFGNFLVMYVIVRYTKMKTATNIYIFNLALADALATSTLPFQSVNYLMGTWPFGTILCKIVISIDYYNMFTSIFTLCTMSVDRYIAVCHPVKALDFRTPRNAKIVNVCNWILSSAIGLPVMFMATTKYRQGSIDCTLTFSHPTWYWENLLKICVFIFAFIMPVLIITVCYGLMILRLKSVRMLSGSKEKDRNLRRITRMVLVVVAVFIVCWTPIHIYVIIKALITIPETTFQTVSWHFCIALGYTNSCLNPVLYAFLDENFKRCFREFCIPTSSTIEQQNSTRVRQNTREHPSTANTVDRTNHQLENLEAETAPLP
Chain of UniProt Q9UKF6 (whole entry, looked up): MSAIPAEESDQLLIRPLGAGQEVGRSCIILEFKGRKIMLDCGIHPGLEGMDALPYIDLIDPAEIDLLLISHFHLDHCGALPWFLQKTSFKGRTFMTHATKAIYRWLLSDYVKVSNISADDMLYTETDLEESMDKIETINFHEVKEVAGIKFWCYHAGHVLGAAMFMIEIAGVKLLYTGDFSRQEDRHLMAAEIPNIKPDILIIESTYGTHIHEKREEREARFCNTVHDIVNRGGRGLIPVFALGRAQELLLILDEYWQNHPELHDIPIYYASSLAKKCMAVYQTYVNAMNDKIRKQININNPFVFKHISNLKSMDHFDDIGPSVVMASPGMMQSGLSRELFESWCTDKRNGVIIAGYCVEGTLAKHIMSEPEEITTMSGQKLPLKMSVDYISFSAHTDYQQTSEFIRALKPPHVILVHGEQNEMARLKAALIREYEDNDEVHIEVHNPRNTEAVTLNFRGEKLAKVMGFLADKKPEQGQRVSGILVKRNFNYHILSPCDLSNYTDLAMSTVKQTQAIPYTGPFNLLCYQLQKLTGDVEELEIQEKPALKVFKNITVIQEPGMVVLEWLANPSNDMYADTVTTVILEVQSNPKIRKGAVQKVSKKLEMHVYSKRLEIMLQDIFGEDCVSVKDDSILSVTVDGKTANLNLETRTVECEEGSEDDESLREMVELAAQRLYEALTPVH
Chain of UniProt Q9NTG7 (whole entry, looked up): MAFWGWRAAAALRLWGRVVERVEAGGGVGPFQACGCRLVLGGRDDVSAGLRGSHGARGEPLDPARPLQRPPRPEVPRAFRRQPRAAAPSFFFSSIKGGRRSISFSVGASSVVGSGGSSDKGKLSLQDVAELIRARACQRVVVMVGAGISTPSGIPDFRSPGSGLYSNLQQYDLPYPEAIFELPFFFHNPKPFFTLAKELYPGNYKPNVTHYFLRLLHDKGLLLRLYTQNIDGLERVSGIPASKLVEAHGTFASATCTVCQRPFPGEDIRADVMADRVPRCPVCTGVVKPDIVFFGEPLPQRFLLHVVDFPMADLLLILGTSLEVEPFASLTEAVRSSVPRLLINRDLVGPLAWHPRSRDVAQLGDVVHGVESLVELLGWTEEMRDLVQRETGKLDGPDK
Chain of UniProt Q99436 (whole entry, looked up): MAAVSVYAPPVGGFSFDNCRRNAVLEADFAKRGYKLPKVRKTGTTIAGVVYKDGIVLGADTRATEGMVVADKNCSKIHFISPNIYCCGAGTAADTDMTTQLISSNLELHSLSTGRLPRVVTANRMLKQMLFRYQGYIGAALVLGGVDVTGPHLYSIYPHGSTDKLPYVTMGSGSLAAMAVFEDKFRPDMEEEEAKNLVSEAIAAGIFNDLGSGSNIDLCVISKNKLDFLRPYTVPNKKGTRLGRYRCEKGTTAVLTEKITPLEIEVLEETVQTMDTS

Structure (SMILES) | target or system | assay | system | conditions | how to read | quantity | value
Oc1ccc2c3c1O[C@H]1[C@@H](O)CC[C@@]4(O)[C@@H](C2)N(CC2CCC2)CC[C@]314 | Probable G-protein coupled receptor 148 (GPR148, Homo sapiens, UniProt Q8TDV2) | β-arrestin recruitment, TANGO luminescence, item: GPR148 | – | concentration not given | reference: basal luminescence | log2 fold change | 0.097
N=C(N)NCCC[C@@H]1NC(=O)[C@H](CCCCNC(=O)c2ccc(CNC34CNCCNCC(N)(CNCCNC3)CNCCNC4)cc2)NC(=O)[C@@H](Cc2ccc(O)cc2)NC(=O)[C@H](CC(=O)O)NC(=O)CNC1=O [copper-64 labelled] | – | microPET imaging | athymic nude mice, male, PC-3 xenograft, PC-3 tumour | intravenous, 0.2 nmol, 7.4 MBq, 2 h | – | tumour uptake | 0.54 ± 0.09 %ID/g
Cc1ccccc1NC(=O)Nc1ccc(CC(=O)N[C@@H](CCCCNC(=O)/C=C/c2cccnc2)C(=O)N[C@@H](CCCC(=O)O)C(=O)NC2(C(=O)NCCOCCOCCOCCOCC(=O)N[C@@H](CCCCNC(=S)Nc3ccc(CCCN(CCN4CCN(CP(=O)(O)O)CCN(CP(=O)(O)O)CC4)CC(=O)O)cc3)C(N)=O)CCCCC2)cc1 [gallium-68 labelled] | – | – | mice with B16-F10 tumour, tumour | intravenous, 2 h | – | tumour uptake | 13.7 ± 2.4 %ID/g
CC[C@H](C)[C@H](NC(=O)[C@H](Cc1ccccc1)NC(=O)[C@H](CCC(=O)O)NC(=O)[C@H](CCCNC(=N)N)NC(=O)[C@H](C)NC(=O)[C@H](C)NC(=O)[C@H](CCC(N)=O)NC(=O)[C@H](CCC(=O)O)NC(=O)[C@H](CCC(=O)O)NC(=O)[C@H](CC(C)C)NC(=O)[C@H](Cc1ccc(O)cc1)NC(=O)[C@H](CO)NC(=O)[C@H](CO)NC(=O)[C@@H](NC(=O)[C@H](CC(=O)O)NC(=O)[C@H](CO)NC(=O)[C@@H](NC(=O)[C@H](Cc1ccccc1)NC(=O)[C@@H](NC(=O)CNC(=O)[C@H](CCC(=O)O)NC(=O)[C@H](C)NC(=O)CCc1c[nH]cn1)[C@@H](C)O)[C@@H](C)O)C(C)C)C(=O)N[C@@H](C)C(=O)N[C@@H](Cc1c[nH]c2ccccc12)C(=O)N[C@@H](CC(C)C)C(=O)N[C@H](C(=O)N[C@@H](CCCNC(=N)N)C(=O)NCC(=O)N[C@@H](CCCNC(=N)N)C(=O)N[C@@H](CCCCNC(=O)COCCOCCNC(=O)COCCOCCNC(=O)CC[C@H](NC(=O)CCCCCCCCCCCCCCCCC(=O)O)C(=O)O)C(=O)NCC(=O)NCC(=O)N[C@@H](CO)C(=O)N[C@@H](CCCCNc1c(NCCCCCN(O)C(=O)CCC(=O)NCCCCCN(O)C(=O)CCC(=O)NCCCCCN(O)C(C)=O)c(=O)c1=O)C(=O)O)C(C)C [zirconium-89 labelled] | – | – | rat, stomach | iv, 3 nmol/kg, 72 h, ex vivo | – | tissue uptake | 0.22 %ID/g
O=C(CP(=O)(O)O)NO | enolase (ENO1 and ENO2) | enzyme activity, inhibitor, NADH-linked | – | with: 2-phosphoglycerate | – | IC50 | ~0.02 µM
COc1ccc(C[C@H](NC(=O)[C@H](C)NC(=O)CN2CCOCC2)C(=O)N[C@@H](CC2CCC(F)(F)CC2)C(=O)[C@@]2(C)CO2)cc1 | PSMB7 (Homo sapiens, UniProt Q99436) | inhibitor, competitive ABPP | Raji cell lysate | constitutive proteasome β2c | – | IC50 | > 10 µM
C[C@@H](NC(=O)[C@@H](N)Cc1ccc(O)cc1)C(=O)NCC(=O)N[C@@H](Cc1ccc(Cl)cc1)C(=O)N(C)CCC[C@@]1(c2ccc(F)cc2)OCc2cc(C#N)ccc21 | Oprm1 (Rattus norvegicus, UniProt P33535) | – | – | – | – | IC50 | 0.0145 µM
CC(C)C[C@@H]1NC(=O)[C@H](CC(C)C)NC(=O)[C@H](Cc2c[nH]c3ccccc23)NC(=O)[C@H](CO)NC(=O)[C@H](Cc2c[nH]c3ccccc23)NC(=O)[C@@H]2CCCN2C(=O)[C@H](CC(C)C)NC(=O)[C@H](Cc2c[nH]cn2)NC(=O)[C@@H]2CCCN2C(=O)[C@H](CC(N)=O)NC(=O)[C@H](C)NC(=O)[C@H](Cc2ccc(O)cc2)NC(=O)[C@H](CS)NC(=O)[C@H](CCCCNC(=O)CN2CCN(CC(=O)O)CCN(CC(=O)O)CCN(CC(=O)O)CC2)NC1=O [lutetium-177 labelled] | – | – | Balb/c mouse, female, 4T1 tumour, intestine | intravenous, 3.7 MBq, 72 h | – | tissue uptake | 1.02 %ID
NC(N)=NC(=O)c1nc(Cl)c(N2CCCCCC2)nc1N | Genome polyprotein, 3D RNA polymerase (Coxsackievirus B3, UniProt P03313) | RNA polymerase activity, inhibitor, single AMP incorporation | – | no Mg2+ preincubation | – | IC50 | 136 ± 22 µM
O=C(Cn1nnc2ccccc21)Nc1ccccc1N1CCc2sccc2C1 | Genome polyprotein, 3C protease (rhinovirus B14, UniProt P03303) | protease activity, inhibitor, SAMDI-MS | – | – | – | IC50 | > 100 µM
CC(C)C[C@H]1CNC(=O)N2C[C@H](C[C@H]2C(N)=O)SCCCCCCSC[C@H](NC(=O)[C@H](Cc2ccccc2)NC(=O)[C@H](CO)NC(=O)[C@@H](N)[C@@H](C)O)C(=O)N[C@@H](CCC(=O)O)C(=O)N[C@@H](Cc2ccc(O)cc2)C(=O)N[C@@H](Cc2c[nH]c3ccccc23)C(=O)N[C@@H](C)C(=O)N[C@@H](CC(C)C)CNC(=O)N1 | E3 ubiquitin-protein ligase Mdm2, with p53 (MDM2, Homo sapiens, UniProt Q00987) | inhibitor | – | – | – | IC50 | 0.00191 µM
COc1cc(Nc2ncc(F)c(Nc3ccc4c(n3)NC(=O)C(C)(C)O4)n2)cc(OC)c1OC | SIRT3 (Homo sapiens, UniProt Q9NTG7) | – | – | – | – | IC50 | > 10 µM
O=C1CSC(c2cccc(Cl)c2Cl)N1c1nc(-c2ccc(S(=O)(=O)N3CCOCC3)cc2)cs1 (stereo not drawn) | gag-pol reverse transcriptase | – | – | – | – | IC50 | > 4 µM
COc1c(CCC[P+](c2ccccc2)(c2ccccc2)c2ccccc2)cc2c(c1OC)OCO2.[I-] | NCI-H522 | SRB | – | – | – | GI50 | -5.76 log M
C[C@H]1CN(c2n[nH]c3nc(N[C@H]4CC[C@H](NS(=O)(=O)CCC(F)(F)F)CC4)ncc23)CCO1 | MYLK (Homo sapiens, UniProt Q15746) | biochemical | – | – | – | IC50 | ≥ 20 µM
Nc1ccc(-c2ccccc2)cc1 | Cytochrome P450 2A13 | enzyme activity, inhibitor | – | 20 min, pH 7.4 | – | IC50 | > 200 µM
N#Cc1ccc(Nc2ncc(Cc3c(F)cc(-c4ccc(OS(=O)(=O)F)cc4)cc3F)o2)cc1 | gag-pol reverse transcriptase | enzyme activity, inhibitor | HIV-1 | – | – | IC50 | > 20 µM
CN1CCN(CCOc2c(Cl)cc(C(=O)N[C@@H](Cc3ccccc3)C(=O)O)c(O)c2Cl)CC1 | CPSF3 (Homo sapiens, UniProt Q9UKF6) | pre-mRNA cleavage, inhibitor | HeLa nuclear extract | with: Chimera_3 substrate | – | IC50 | 39.5 µM
c1ccc2c(c1)ccc1c3ccccc3ccc21 | Cytochrome P450 2A13 | enzyme activity, inhibitor | – | 20 min, pH 7.4 | – | IC50 | > 200 µM
CC[C@H](C)[C@H](NC(=O)[C@H](CCC(=O)O)NC(=O)[C@H](CCC(N)=O)NC(=O)[C@H](C)NC(=O)[C@H](CCCCN)NC(=O)[C@H](CCCCN)NC(=O)[C@H](CC(C)C)NC(=O)[C@H](CC(=O)O)NC(=O)[C@H](C)N)C(=O)O | Uncharacterized protein (Equus caballus, UniProt Q38RB9) | peptide binding, competitor, competitive radioligand binding | purified horse MHC class I | pH 7 | – | IC50 | 0.0077 µM
CC[C@H](C)[C@H](NC(=O)[C@H](C)NC(=O)[C@H](CCCCN)NC(=O)[C@H](CC(C)C)NC(=O)[C@H](C)NC(=O)[C@@H](NC(=O)[C@H](Cc1c[nH]cn1)NC(=O)[C@H](CC(C)C)NC(=O)[C@@H](NC(=O)[C@@H](NC(=O)[C@H](CCCCN)NC(=O)[C@H](C)NC(=O)[C@H](C)NC(=O)[C@H](CO)NC(=O)[C@H](CCCCN)NC(=O)[C@H](Cc1ccccc1)NC(=O)[C@@H](NC(=O)[C@H](CCCCN)NC(=O)[C@H](CC(C)C)NC(=O)[C@H](Cc1ccccc1)NC(=O)[C@H](CO)NC(=O)[C@H](CCCCN)NC(=O)[C@H](Cc1c[nH]c2ccccc12)NC(=O)[C@H](CCCCN)NC(C)=O)[C@@H](C)O)[C@@H](C)O)C(C)C)[C@@H](C)O)C(=O)N[C@@H](CO)C(=O)N[C@@H](CO)C(N)=O | Pseudomonas aeruginosa | – | – | 43 strains | – | MBC90 | 32 µg/mL (≈ 10.9 µM)

Some of these lines once more:
Structure (SMILES) | target or system | assay | system | conditions | how to read | quantity | value
CC[C@H](C)[C@H](NC(=O)[C@H](C)NC(=O)[C@H](CCCCN)NC(=O)[C@H](CC(C)C)NC(=O)[C@H](C)NC(=O)[C@@H](NC(=O)[C@H](Cc1c[nH]cn1)NC(=O)[C@H](CC(C)C)NC(=O)[C@@H](NC(=O)[C@@H](NC(=O)[C@H](CCCCN)NC(=O)[C@H](C)NC(=O)[C@H](C)NC(=O)[C@H](CO)NC(=O)[C@H](CCCCN)NC(=O)[C@H](Cc1ccccc1)NC(=O)[C@@H](NC(=O)[C@H](CCCCN)NC(=O)[C@H](CC(C)C)NC(=O)[C@H](Cc1ccccc1)NC(=O)[C@H](CO)NC(=O)[C@H](CCCCN)NC(=O)[C@H](Cc1c[nH]c2ccccc12)NC(=O)[C@H](CCCCN)NC(C)=O)[C@@H](C)O)[C@@H](C)O)C(C)C)[C@@H](C)O)C(=O)N[C@@H](CO)C(=O)N[C@@H](CO)C(N)=O | Pseudomonas aeruginosa | – | – | 43 strains | – | MBC90 | 32 µg/mL (≈ 10.9 µM)
COc1ccc(C[C@H](NC(=O)[C@H](C)NC(=O)CN2CCOCC2)C(=O)N[C@@H](CC2CCC(F)(F)CC2)C(=O)[C@@]2(C)CO2)cc1 | PSMB7 (Homo sapiens, UniProt Q99436) | inhibitor, competitive ABPP | Raji cell lysate | constitutive proteasome β2c | – | IC50 | > 10 µM
